# Experimental data gathered from unrelated publications.
# By UniProt entry, the sequences of proteins in these tests, tags left out. Residues count along the entry.
# UniProt P31652, whole entry: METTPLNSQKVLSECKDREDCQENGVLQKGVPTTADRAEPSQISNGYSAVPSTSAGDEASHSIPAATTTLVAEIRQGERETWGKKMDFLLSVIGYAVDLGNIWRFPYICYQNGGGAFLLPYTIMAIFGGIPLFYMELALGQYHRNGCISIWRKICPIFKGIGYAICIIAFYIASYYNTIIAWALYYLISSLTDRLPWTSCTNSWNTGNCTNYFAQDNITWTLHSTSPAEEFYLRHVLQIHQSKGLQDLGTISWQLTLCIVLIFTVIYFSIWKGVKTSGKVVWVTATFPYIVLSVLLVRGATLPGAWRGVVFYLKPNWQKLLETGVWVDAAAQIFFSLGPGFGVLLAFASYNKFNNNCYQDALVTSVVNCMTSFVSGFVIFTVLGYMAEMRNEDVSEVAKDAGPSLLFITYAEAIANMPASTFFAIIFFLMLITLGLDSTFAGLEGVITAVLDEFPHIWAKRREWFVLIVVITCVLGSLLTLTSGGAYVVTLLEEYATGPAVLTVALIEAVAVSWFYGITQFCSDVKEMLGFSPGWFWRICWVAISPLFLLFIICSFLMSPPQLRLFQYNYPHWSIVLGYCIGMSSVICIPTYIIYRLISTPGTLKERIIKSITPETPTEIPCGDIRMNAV
# UniProt P41143, whole entry: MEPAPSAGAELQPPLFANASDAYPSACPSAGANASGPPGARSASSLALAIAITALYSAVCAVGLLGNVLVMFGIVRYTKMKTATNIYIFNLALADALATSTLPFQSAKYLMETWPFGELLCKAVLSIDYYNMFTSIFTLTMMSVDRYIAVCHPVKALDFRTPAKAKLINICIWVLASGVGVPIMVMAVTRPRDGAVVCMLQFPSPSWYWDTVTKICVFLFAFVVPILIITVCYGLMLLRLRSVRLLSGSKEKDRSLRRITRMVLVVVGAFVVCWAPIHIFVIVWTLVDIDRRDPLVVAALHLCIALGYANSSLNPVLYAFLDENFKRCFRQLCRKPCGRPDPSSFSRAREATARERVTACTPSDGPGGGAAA
# UniProt P23977, whole entry: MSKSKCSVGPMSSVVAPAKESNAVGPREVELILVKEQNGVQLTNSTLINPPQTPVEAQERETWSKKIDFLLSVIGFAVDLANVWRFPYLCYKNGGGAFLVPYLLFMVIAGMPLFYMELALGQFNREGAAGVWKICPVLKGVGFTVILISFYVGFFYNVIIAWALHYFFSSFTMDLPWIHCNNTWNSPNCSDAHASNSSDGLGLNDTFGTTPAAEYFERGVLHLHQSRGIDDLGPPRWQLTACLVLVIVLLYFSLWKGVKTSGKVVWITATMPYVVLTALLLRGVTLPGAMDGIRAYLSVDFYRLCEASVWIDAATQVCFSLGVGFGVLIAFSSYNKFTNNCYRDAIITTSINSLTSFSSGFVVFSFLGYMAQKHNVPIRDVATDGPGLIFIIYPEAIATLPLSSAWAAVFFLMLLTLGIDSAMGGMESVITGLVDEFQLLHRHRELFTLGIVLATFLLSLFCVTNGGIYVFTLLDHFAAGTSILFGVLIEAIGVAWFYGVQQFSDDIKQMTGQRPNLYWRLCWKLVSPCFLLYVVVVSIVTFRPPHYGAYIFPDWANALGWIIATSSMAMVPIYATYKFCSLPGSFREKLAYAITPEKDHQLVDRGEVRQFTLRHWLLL
# UniProt P41145, whole entry: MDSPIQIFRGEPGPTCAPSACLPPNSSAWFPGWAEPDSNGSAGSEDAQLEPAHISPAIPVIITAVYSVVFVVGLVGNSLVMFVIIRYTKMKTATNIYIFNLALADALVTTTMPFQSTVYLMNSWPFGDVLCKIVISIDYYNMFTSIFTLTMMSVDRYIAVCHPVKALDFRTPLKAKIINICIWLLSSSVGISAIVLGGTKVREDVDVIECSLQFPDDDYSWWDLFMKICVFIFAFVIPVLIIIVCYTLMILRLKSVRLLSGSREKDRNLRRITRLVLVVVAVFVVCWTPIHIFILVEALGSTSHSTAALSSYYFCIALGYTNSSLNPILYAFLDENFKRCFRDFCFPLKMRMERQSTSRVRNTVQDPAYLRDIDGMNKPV
# UniProt Q9NPH5, whole entry: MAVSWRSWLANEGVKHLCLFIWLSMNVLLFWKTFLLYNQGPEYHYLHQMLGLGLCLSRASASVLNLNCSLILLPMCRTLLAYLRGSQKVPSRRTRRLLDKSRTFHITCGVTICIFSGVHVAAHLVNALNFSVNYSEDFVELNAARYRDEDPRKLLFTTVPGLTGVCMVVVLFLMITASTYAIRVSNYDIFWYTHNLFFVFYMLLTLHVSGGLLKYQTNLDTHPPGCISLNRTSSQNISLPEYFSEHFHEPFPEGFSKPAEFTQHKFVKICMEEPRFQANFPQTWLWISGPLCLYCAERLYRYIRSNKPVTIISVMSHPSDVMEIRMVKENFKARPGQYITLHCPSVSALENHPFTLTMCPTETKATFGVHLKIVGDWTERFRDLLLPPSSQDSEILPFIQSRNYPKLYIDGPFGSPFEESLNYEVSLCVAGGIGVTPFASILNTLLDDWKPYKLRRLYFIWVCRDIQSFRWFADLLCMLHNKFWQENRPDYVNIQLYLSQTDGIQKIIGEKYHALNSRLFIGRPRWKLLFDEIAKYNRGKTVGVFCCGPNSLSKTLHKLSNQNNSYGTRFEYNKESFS
# UniProt P04839, whole entry, looked up: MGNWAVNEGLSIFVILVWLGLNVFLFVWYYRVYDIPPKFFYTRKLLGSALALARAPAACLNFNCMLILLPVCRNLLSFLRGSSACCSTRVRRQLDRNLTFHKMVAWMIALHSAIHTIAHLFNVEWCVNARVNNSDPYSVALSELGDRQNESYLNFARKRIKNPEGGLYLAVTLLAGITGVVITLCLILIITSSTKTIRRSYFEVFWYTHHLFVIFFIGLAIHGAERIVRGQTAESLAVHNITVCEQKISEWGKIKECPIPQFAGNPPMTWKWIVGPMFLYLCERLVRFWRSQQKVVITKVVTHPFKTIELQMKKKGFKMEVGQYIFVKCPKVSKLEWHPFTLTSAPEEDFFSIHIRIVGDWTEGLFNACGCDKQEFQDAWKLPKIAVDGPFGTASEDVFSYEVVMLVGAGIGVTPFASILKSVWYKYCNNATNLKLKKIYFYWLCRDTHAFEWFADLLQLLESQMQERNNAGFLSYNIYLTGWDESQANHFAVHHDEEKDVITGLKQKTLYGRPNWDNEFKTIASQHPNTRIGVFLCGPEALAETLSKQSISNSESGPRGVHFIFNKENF
# UniProt P28472, whole entry, looked up: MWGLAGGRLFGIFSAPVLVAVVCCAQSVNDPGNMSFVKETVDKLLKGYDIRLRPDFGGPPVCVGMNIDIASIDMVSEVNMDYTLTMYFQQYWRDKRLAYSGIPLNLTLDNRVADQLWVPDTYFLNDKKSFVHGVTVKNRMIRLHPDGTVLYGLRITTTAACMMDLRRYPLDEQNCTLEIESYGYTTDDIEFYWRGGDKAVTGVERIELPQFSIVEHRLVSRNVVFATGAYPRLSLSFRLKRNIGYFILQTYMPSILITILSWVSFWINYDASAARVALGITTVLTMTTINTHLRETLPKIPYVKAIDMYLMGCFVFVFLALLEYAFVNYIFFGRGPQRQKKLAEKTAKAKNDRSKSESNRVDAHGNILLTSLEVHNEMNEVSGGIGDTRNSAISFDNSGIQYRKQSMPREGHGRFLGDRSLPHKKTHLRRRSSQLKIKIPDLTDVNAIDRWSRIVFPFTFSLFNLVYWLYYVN
# UniProt Q9Y5S8, whole entry: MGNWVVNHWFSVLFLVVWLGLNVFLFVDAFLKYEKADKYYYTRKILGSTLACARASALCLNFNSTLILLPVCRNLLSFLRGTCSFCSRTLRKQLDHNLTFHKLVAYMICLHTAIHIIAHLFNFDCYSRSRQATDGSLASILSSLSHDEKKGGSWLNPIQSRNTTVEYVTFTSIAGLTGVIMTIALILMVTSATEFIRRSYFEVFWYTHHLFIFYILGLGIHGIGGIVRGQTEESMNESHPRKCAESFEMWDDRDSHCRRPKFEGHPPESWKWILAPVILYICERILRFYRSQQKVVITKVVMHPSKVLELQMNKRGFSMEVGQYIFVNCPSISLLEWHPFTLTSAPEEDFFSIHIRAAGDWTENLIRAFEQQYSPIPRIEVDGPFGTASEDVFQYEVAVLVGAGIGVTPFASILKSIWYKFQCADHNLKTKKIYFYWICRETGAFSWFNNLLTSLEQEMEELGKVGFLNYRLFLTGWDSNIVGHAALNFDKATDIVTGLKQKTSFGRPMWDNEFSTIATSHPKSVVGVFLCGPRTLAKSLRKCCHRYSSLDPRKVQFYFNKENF
# UniProt P67660, whole entry S267Q, looked up: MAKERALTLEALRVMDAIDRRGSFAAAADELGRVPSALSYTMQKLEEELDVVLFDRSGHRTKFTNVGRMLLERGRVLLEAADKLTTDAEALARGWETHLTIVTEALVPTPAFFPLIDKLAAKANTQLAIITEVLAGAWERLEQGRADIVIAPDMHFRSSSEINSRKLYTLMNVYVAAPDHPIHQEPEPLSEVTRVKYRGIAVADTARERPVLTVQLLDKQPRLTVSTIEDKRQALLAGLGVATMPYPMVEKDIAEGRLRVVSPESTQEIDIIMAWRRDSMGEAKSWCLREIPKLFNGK
# UniProt P04757, whole entry, looked up: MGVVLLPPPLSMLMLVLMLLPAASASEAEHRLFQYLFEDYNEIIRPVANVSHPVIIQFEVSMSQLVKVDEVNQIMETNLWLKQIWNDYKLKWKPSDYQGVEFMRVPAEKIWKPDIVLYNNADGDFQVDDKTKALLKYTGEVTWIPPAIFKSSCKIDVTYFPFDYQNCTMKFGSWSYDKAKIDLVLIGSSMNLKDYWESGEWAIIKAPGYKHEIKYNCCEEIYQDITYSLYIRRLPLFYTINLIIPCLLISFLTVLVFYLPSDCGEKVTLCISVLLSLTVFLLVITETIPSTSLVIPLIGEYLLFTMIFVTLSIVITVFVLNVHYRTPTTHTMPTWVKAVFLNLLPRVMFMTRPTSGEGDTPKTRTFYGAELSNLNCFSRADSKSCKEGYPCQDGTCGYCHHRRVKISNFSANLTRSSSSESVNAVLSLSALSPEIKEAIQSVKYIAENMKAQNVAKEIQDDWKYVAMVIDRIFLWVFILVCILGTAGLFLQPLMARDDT
# UniProt P12390, whole entry, looked up: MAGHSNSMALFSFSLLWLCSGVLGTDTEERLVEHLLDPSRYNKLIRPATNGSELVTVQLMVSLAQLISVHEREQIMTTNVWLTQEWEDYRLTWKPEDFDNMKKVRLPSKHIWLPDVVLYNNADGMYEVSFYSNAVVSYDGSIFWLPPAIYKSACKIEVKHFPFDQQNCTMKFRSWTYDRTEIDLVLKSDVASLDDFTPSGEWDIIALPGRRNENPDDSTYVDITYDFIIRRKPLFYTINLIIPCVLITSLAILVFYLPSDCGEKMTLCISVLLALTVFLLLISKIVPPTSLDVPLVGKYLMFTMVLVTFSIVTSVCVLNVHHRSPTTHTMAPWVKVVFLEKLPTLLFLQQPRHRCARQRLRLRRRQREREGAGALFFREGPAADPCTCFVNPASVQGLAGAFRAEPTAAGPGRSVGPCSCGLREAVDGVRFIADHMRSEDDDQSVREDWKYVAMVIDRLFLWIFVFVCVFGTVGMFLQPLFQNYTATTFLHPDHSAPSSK
# UniProt P43143, whole entry M241L/F253L/V303I/V320I/I327V/A333T/K339T, looked up: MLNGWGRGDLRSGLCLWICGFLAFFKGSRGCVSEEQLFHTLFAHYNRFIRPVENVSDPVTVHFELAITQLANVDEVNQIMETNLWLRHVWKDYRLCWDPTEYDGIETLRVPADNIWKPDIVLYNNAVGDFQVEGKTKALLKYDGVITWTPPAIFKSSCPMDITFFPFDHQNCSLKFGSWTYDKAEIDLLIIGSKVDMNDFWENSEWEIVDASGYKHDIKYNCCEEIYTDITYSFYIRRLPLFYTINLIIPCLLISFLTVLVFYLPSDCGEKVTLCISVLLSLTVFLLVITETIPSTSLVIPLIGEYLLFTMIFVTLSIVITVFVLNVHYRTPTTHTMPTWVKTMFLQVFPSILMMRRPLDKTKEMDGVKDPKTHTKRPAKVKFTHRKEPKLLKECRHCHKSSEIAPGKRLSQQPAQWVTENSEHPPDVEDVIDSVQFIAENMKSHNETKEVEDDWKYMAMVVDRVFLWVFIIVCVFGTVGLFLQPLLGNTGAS
# UniProt P02708, 21-457 limits assumed: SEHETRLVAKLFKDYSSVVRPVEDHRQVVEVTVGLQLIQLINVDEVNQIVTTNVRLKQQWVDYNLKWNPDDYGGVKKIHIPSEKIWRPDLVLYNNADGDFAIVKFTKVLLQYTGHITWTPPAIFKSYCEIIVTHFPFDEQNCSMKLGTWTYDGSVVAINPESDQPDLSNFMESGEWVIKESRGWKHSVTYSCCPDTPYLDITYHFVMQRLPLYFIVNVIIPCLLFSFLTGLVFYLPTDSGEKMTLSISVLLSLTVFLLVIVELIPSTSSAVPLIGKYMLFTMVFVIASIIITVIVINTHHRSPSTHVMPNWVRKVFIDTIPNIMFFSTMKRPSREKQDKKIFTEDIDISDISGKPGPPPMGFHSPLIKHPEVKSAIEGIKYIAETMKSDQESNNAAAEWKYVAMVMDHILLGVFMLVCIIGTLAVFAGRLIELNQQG
# Each line is one published result; not all experiments were run side by side. Several values in a cell are separate wells, animals, samples, runs or records. Numbers after ± are the reported error.
# Slc6a4: Sodium-dependent serotonin transporter (Slc6a4, Rattus norvegicus, UniProt P31652)
# OPRD1: Delta-type opioid receptor (OPRD1, Homo sapiens, UniProt P41143)
# Slc6a3: Sodium-dependent dopamine transporter (Slc6a3, Rattus norvegicus, UniProt P23977)
# OPRK1: Kappa-type opioid receptor (OPRK1, Homo sapiens, UniProt P41145)
# NOX4: NADPH oxidase 4 (NOX4, Homo sapiens, UniProt Q9NPH5)
SMILES,target,assay,test system,setting,endpoint,result
CO[C@]12CC[C@@]3(C[C@@H]1[C@](C)(O)c1ccccc1C)[C@H]1Cc4ccc(O)c5c4[C@@]3(CCN1CC1CC1)[C@H]2O5,"Mu-type opioid receptor (Oprm1, Rattus norvegicus, UniProt P33535)","binding, radioligand displacement",C6 rat glioma,with: [3H]diprenorphine,Ki,0.00019 ± 8e-05 µM
Fc1ccc2nc(Sc3ncnc4c3nnn4Cc3ccccc3)oc2c1,"NADPH oxidase 2 (CYBB, Homo sapiens, UniProt P04839)","enzyme activity, inhibitor, MCLA chemiluminescence",cell-free membranes,,IC50,> 100 µM
COc1cccc2c(CCN)c[nH]c12,Slc6a4,"serotonin release, releaser",rat brain synaptosomes,,EC50,0.0446 ± 0.0038 µM
CO[C@]12CC[C@@]3(C[C@@H]1[C@H](O)c1ccccc1)[C@H]1Cc4ccc(O)c5c4[C@@]3(CCN1CC1CC1)[C@H]2O5,OPRD1,"binding, radioligand displacement",CHO,with: [3H]DPDPE,Ki,0.0026 ± 0.00022 µM
CC[C@H](N)Cc1c[nH]c2ccccc12,Slc6a4,"serotonin release, releaser",rat brain synaptosomes,,EC50,0.0549 ± 0.0078 µM
C=C(C)[C@@H]1[C@H]2OC(=O)[C@@H]1[C@]1(O)C[C@H]3O[C@]34C(=O)O[C@H]2[C@]14C,"GABA-A receptor; alpha-2/beta-3/gamma-2 (Homo sapiens, UniProt P18507+P28472+P47869)","chloride current, inhibitor, whole-cell voltage clamp",L929,"3 min preincubation, with: GABA at EC90",IC50,7.5 µM
CC[C@H](C)[C@H](NC(=O)[C@H](Cc1c[nH]c2ccccc12)NC(=O)[C@H](CCC(N)=O)NC(=O)[C@H](CCCNC(=N)N)NC(=O)[C@H](Cc1c[nH]c2ccccc12)NC(=O)CNC(=O)[C@@H](NC(=O)[C@H](Cc1c[nH]c2ccccc12)NC(=O)[C@H](Cc1c[nH]c2ccccc12)NC(=O)[C@H](CC(N)=O)NC(=O)[C@H](CC(=O)O)NC(=O)[C@@H](N)CC(N)=O)[C@@H](C)O)C(=O)O,"fMet-Leu-Phe receptor (FPR1, Homo sapiens, UniProt P21462, R190W)","binding, competition binding",,"4 °C, with: formyl-Nle-Leu-Phe-Nle-Tyr-Lys-FITC 0.3 nM",Ki,1.2 ± 0.15 µM
NCCc1c[nH]c2ccc(F)cc12,Slc6a3,"dopamine release, releaser",rat brain synaptosomes,,EC50,0.0823 ± 0.0068 µM
CO[C@]12CC[C@@]3(C[C@@H]1[C@@](C)(O)c1ccc(C(C)(C)C)cc1)[C@H]1Cc4ccc(O)c5c4[C@@]3(CCN1CC1CC1)[C@H]2O5,OPRK1,radioligand binding,CHO,with: [3H]U69593,Ki,0.00892 ± 0.00034 µM
CC(C)c1ccc2nc(Sc3ncnc4c3nnn4Cc3ccccc3)oc2c1,"NADPH oxidase 1 (NOX1, Homo sapiens, UniProt Q9Y5S8)","enzyme activity, inhibitor, Amplex Red",cell-free membranes,,IC50,> 100 µM
NCCc1c[nH]c2ccc(Br)cc12,Slc6a3,"dopamine release, releaser",rat brain synaptosomes,,EC50,0.478 µM and < 0.5 µM
CC[C@@](O)(c1ccccc1)[C@H]1C[C@@]23CC[C@]1(OC)[C@@H]1Oc4c(O)ccc5c4[C@@]12CCN(CC1CC1)[C@@H]3C5,OPRK1,"binding, radioligand displacement",CHO,with: [3H]U-69593,Ki,0.00036 ± 4e-05 µM
Cc1cc(O)ccc1O,"Probable HTH-type transcriptional regulator YhaJ, effector-binding domain (yhaJ, Escherichia coli, UniProt P67660, S267Q)",microscale thermophoresis,,pH 7.5,Kd,8400 ± 2200 µM
NCCc1c[nH]c2cc(F)ccc12,Slc6a4,"serotonin release, releaser",rat brain synaptosomes,,EC50,0.0044 ± 0.0004 µM
FC(F)(F)c1ccc2nc(Sc3ncnc4c3nnn4Cc3ccccc3)oc2c1,NOX4,"enzyme activity, inhibitor, Amplex Red",cell-free membranes,,IC50,> 100 µM
CO[C@]12C=C[C@@]3(C[C@@H]1[C@H](O)c1ccccc1)[C@H]1Cc4ccc(O)c5c4[C@@]3(CCN1CC1CC1)[C@H]2O5,OPRD1,"G-protein activation, agonist",,,EC50,0.00176 ± 0.00046 µM
c1ccc(Cn2nnc3c(Sc4nc5ncccc5o4)ncnc32)cc1,NOX4,"enzyme activity, inhibitor, Amplex Red",cell-free membranes,,IC50,41 ± 4 µM
CC(C)C[C@@H]1NC(=O)[C@H](CCC(=O)O)NC(=O)[C@@H]2CCCN2C(=O)[C@H](Cc2c[nH]cn2)NC(=O)[C@H](CCCCC(=O)O)NC(=O)[C@H](CC(C)C)NC(=O)[C@H](Cc2c[nH]cn2)NC(=O)[C@@H]2CSSC[C@H](NC(=O)CN)C(=O)N[C@@H](CSSC[C@@H](C(N)=O)NC1=O)C(=O)N[C@@H](CO)C(=O)N[C@@H](Cc1c[nH]cn1)C(=O)N1CCC[C@H]1C(=O)N[C@@H](C)C(=O)N2,"Chrna3/Chrnb2/Chrna6, with beta3 subunit (Rattus norvegicus, UniProt P04757+P12390+P43143)","ion current, antagonist, two-electrode voltage clamp",Xenopus laevis oocytes,with: 100 µM acetylcholine,IC50,0.0223 µM
NCCc1c[nH]c2c(Cl)cccc12,Slc6a3,"dopamine release, releaser",rat brain synaptosomes,,EC50,1.33 ± 0.061 µM
CO[C@]12CC[C@@]3(C[C@@H]1[C@@](C)(O)c1ccncc1)[C@H]1Cc4ccc(O)c5c4[C@@]3(CCN1CC1CC1)[C@H]2O5,OPRK1,"binding, radioligand displacement",CHO,with: [3H]diprenorphine,Ki,0.00039 ± 9e-05 µM
Cc1ccc2c(CCN)c[nH]c2c1,Slc6a3,"dopamine release, releaser",rat brain synaptosomes,,EC50,0.353 µM and < 0.5 µM
O=C(C1CC1)N1CC2CC(C1)N2,"CHRNA1/CHRNG/CHRND, with beta1 subunit (Homo sapiens, UniProt P02708+P07510+Q07001)",binding,"TE-671, membranes",with: [3H]epibatidine,Ki,0.47 ± 0.086 µM

# A few entries again:
SMILES,target,assay,test system,setting,endpoint,result
CC(C)C[C@@H]1NC(=O)[C@H](CCC(=O)O)NC(=O)[C@@H]2CCCN2C(=O)[C@H](Cc2c[nH]cn2)NC(=O)[C@H](CCCCC(=O)O)NC(=O)[C@H](CC(C)C)NC(=O)[C@H](Cc2c[nH]cn2)NC(=O)[C@@H]2CSSC[C@H](NC(=O)CN)C(=O)N[C@@H](CSSC[C@@H](C(N)=O)NC1=O)C(=O)N[C@@H](CO)C(=O)N[C@@H](Cc1c[nH]cn1)C(=O)N1CCC[C@H]1C(=O)N[C@@H](C)C(=O)N2,"Chrna3/Chrnb2/Chrna6, with beta3 subunit (Rattus norvegicus, UniProt P04757+P12390+P43143)","ion current, antagonist, two-electrode voltage clamp",Xenopus laevis oocytes,with: 100 µM acetylcholine,IC50,0.0223 µM
